Assay results of several laboratories.
Each line is one published result; not all experiments were run side by side.

The Tmax of `COc1ncc(-c2nc3c(n2C(C)C)[C@H](c2ccc(Cl)cc2)N(c2cc(Cl)cn(C)c2=O)C3=O)c(OC)n1` is reported as 3.6 h (LC-MS/MS, noncompartmental; human, plasma; oral, 120 mg, C2D1, high-dose, median).
For `COc1cc(C(=O)NC2CCN(C)CC2)c(F)cc1Nc1ncc(C(F)(F)F)c(Oc2cccc3c2C(=O)N(C)C3)n1`, “Tmax at steady state” read 2.5 h (human patients, plasma; oral, 300 mg once daily repeated, median).
`CN(C)N=Nc1[nH]cnc1C(N)=O` gave a Tmax (median) of 1 h (human patients, plasma; intravenous, 1000 mg/m^2 over 1 h, cycle 2 day 1, co-administered with another drug).
For `C=CC(=O)Nc1cc(Nc2nccc(-c3cn(C)c4ccccc34)n2)c(OC)cc1N(C)CCN(C)C`, “Tmax at steady state” read 6 h (human, plasma; oral, cycle 3 day 1, safety run-in, with: carboplatin plus pemetrexed).
`Cc1cn(C(=O)c2c(-c3c(Cl)cc(Cl)cc3Cl)noc2C(C)(C)F)c2cccc(/C=C/C(=O)O)c12` gave a Tmax of 3.03 h (human patients; 1000 mg bid, cycle 8 day 1).
`O=C(COc1ccc(Cl)cc1)NC12CC(c3nnc([C@H]4C[C@@H](OC(F)(F)F)C4)o3)(C1)C2` has a tmax of 23.8 h (healthy human both sexes, plasma; oral, 260 mg once daily, day 1, median fasted).
The Tmax (median) of `Cc1cc(Nc2ncnc3ccc(NC4=NC(C)(CO)CO4)cc23)ccc1Oc1ccn2ncnc2c1` (centres unmarked) is reported as 2 h (human, plasma; oral, 300 mg tucatinib single dose, day 1, tucatinib alone).
With `CCO` the Tmax (median) was 0.53 h (human, breath; 0.5 g/kg, with: 10 mg co-dosed drug).
`N#Cc1ccc(C(c2ccc(C#N)cc2)n2cncn2)cc1` — result for “Tmax at steady state”: 1.9 h (human; 150 mg).
With `COc1nnc2ccc(N3CCC(c4ccc(OCCN5CCN(C)C(=O)[C@H]5C)cc4)CC3)nn12` the Tmax was 0.5 h (human, plasma; oral, 2 mg once daily, single dose, monotherapy).
For `O=C(Nc1cnccc1Cl)N1CCN(Cc2ccc3c(c2)OC(F)(F)O3)CC1`, the tmax was 1 h (human healthy young women, plasma; oral, 100 mg once daily, day 1, multiple dose median).
The Tmax median of `Cc1nc2ccc(F)cc2n1-c1nc(N)c(F)c(Nc2ccc(C(F)(F)F)cc2)n1` is reported as 4 h (human patients, plasma; oral, 300 mg twice weekly, cycles 1 and 2 pooled).
With `CC#CC(=O)N1CC[C@@H](n2c(=O)n(-c3ccc(Oc4ccccc4)cc3)c3c(N)ncnc32)C1` the Tmax (median) was 2.85 h (human, fasted, plasma; oral, 300 mg twice daily, cycle 1 day 1).
`Cc1noc(C)c1-c1cc(C(O)(c2ccccn2)c2ccccn2)c2nc(C3CC3)[nH]c2c1` has a Tmax of 0.5 h (human, fasted, plasma; oral, 3 mg, cycle 1 day 15, with: enzalutamide once daily).
Under “Tmax total drug”, `Cc1cc(C)c(CNC(=O)c2cc(Cl)c3c(c2C)O[C@@](C)([C@H]2CC[C@H](N(C)C)CC2)O3)c(=O)[nH]1` is recorded as 2 h (human, plasma; oral, 200 mg, cycle 1 day 1).
With `CCCOc1ccc(NC(=O)CN2CCN(C)CC2)cc1-c1nc(CC)c(CC)c(=O)[nH]1` the Tmax (median) was 1.5 h (human, fasting, plasma; oral, 10 mg, with: alcohol 0.5 g/kg).
`C=CC(=O)Nc1cc(Nc2nccc(-c3c[nH]c4ccccc34)n2)c(OC)cc1N(C)CCN(C)C`: “Tmax at steady state” 5.9 h (human, plasma; cycle 3 day 1, safety run-in, with: carboplatin plus pemetrexed).
For `COC(=O)N[C@@H](C)CNc1nccc(-c2cn(C(C)C)nc2-c2cc(Cl)cc(NS(C)(=O)=O)c2F)n1`, the Tmax median was 1.93 h (humans, plasma; oral, day 14, steady state, with: binimetinib).
`COc1cc(C(=O)NC2CCN(C)CC2)c(F)cc1Nc1ncc(C(F)(F)F)c(Oc2cccc3c2C(=O)N(C)C3)n1`: “Tmax steady state” 2.95 h (human, Japanese, plasma; oral, 200 mg once daily multiple dose, median).
`COc1cc(N2CCC(N3CCN(C)CC3)CC2)ccc1Nc1ncnc(Nc2ccccc2S(=O)(=O)C(C)C)n1` gave a tmax of 3.63 h (human, plasma; oral, 75 mg, day 1).
Under Tmax change, `Cc1ccc(C)c(OCCCC(C)(C)C(=O)O)c1` is recorded as “no effect” (human; dose not given, with: lopinavir-ritonavir; baseline: without lopinavir-ritonavir).
For `N#Cc1ccc2c(c1)[C@H]1CCCN(C(=O)c3ccc4[nH]cnc4c3)[C@H]1C2`, “Tmax at steady state” read 0.667 h (human, plasma; oral, 240 mg once daily, median).
The tmax of `C[C@@H](Cn1ccc(-c2ccc(C#N)c(Cl)c2)n1)NC(=O)c1cc([C@@H](C)O)[nH]n1` is reported as 0.25 h (healthy male human, plasma; intravenous infusion, 100 µg 14C-labelled, 15 min infusion, microtracer, median).

Some of these lines once more:
For `COC(=O)N[C@@H](C)CNc1nccc(-c2cn(C(C)C)nc2-c2cc(Cl)cc(NS(C)(=O)=O)c2F)n1`, the Tmax median was 1.93 h (humans, plasma; oral, day 14, steady state, with: binimetinib).
`COc1cc(C(=O)NC2CCN(C)CC2)c(F)cc1Nc1ncc(C(F)(F)F)c(Oc2cccc3c2C(=O)N(C)C3)n1`: “Tmax steady state” 2.95 h (human, Japanese, plasma; oral, 200 mg once daily multiple dose, median).
`COc1cc(N2CCC(N3CCN(C)CC3)CC2)ccc1Nc1ncnc(Nc2ccccc2S(=O)(=O)C(C)C)n1` gave a tmax of 3.63 h (human, plasma; oral, 75 mg, day 1).
